Measured values gathered from unrelated publications.
Compare with care: the assays were run in different laboratories.
Organism: Bacillus subtilis

Structure (SMILES) | test | test system | conditions | MIC
CC[C@H](C)[C@H](NC(=O)[C@H](CCCCN)NC(=O)[C@H](CC(N)=O)NC(=O)[C@H](CC(C)C)NC(=O)[C@H](Cc1ccccc1)NC(=O)[C@H](CCCCN)NC(=O)[C@H](CCCCNC(=N)N)NC(=O)[C@H](CC(C)C)NC(=O)[C@H](CC(C)C)NC(=O)[C@H](CCCCN)NC(=O)[C@H](CCCCNC(=N)N)NC(=O)[C@H](CC(C)C)NC(=O)CNC(C)=O)C(=O)N[C@@H](CCCCN)C(=O)N[C@@H](CCCCNC(=N)N)C(N)=O | broth microdilution | ATCC 6633 | – | 3.12 µM
CC[C@H](C)[C@H](N)C1=N[C@H](C(=O)N[C@@H](CC(C)C)C(=O)N[C@H](CCC(=O)O)C(=O)N[C@@H](Cc2ccccc2)C(=O)N[C@H]2CCCCNC(=O)[C@H](CC(N)=O)NC(=O)[C@@H](CC(=O)O)NC(=O)[C@H](Cc3c[nH]cn3)NC(=O)[C@@H](Cc3ccccc3)NC(=O)[C@H]([C@@H](C)CC)NC(=O)[C@@H](CCCN)NC2=O)CS1 | – | 168 | 18 h, 37 °C, with: ZnSO4 0.3 mM | 64 µg/mL
CC[C@@H](C)[C@H](NC(=O)[C@H](C)NC(=O)[C@H](CCCCN)NC(=O)[C@H](CC(C)C)NC(=O)[C@H](C)NC(=O)[C@@H](NC(=O)[C@H](Cc1c[nH]cn1)NC(=O)[C@H](CC(C)C)NC(=O)[C@@H](NC(=O)[C@@H](NC(=O)[C@H](CCCCN)NC(=O)[C@H](CCCCN)NC(=O)[C@H](C)NC(=O)[C@H](CO)NC(=O)[C@H](CCCCN)NC(=O)[C@H](Cc1ccccc1)NC(=O)[C@@H](NC(=O)[C@H](CCCCN)NC(=O)[C@H](CC(C)C)NC(=O)[C@H](Cc1ccccc1)NC(=O)[C@H](CO)NC(=O)[C@H](CCCCN)NC(=O)[C@H](Cc1c[nH]c2ccccc12)NC(=O)[C@H](CCCCN)NC(C)=O)[C@@H](C)O)[C@@H](C)O)C(C)C)[C@@H](C)O)C(=O)N[C@@H](CO)C(=O)N[C@@H](CO)C(N)=O | broth dilution | ATCC 49619, Mueller-Hinton broth | 24 h, 37 °C | 4 µg/mL
CC[C@H](C)[C@H](NC(=O)[C@@H](Cc1ccccc1)NC)C(=O)OC[C@H](N)C(=O)N[C@H](CCC(N)=O)C(=O)N[C@@H](C(=O)N[C@H](C(=O)OC[C@H](N)C(=O)N[C@H]1C(=O)N[C@@H](C)C(=O)N[C@@H](C2CCCCC2)C(=O)N[C@@H]([C@@H](C)CC)C(=O)O[C@H]1C)[C@@H](C)CC)[C@@H](C)CC | broth microdilution | ATCC 6051, Mueller-Hinton broth | 16 h, 37 °C | 0.125 µg/mL
CC(C)C[C@@H]1NC(=O)[C@H](CCN)NC(=O)CSC[C@@H](C(=O)N[C@@H](CCN)C(N)=O)NC(=O)[C@H](CC(C)C)NC(=O)[C@H](CC(C)C)NC(=O)[C@H](CC(C)C)NC(=O)[C@@H]2CSCC(=O)N[C@@H](CCN)C(=O)N[C@@H](CC(C)C)C(=O)N[C@@H](CCN)C(=O)N[C@@H](CCCCNC(=O)[C@H](CCN)NC1=O)C(=O)N[C@@H](CCN)C(=O)N[C@@H](CC(C)C)C(=O)N[C@@H](CC(C)C)C(=O)N2 | – | BR 151 | 18 h | 4 µg/mL
CC[C@H](C)[C@H](NC(=O)[C@H](CCCN)NC(=O)[C@H](CC(N)=O)NC(=O)[C@H](Cc1c[nH]c2ccccc12)NC(=O)[C@H](Cc1ccccc1)NC(=O)[C@H](CCCN)NC(=O)[C@H](CCCNC(=N)N)NC(=O)[C@H](CC(C)C)NC(=O)[C@H](Cc1c[nH]c2ccccc12)NC(=O)[C@H](CCCN)NC(=O)[C@H](CCCNC(=N)N)NC(=O)[C@H](CC(C)C)NC(=O)CNC(C)=O)C(=O)N[C@@H](CCCN)C(=O)N[C@@H](CCCNC(=N)N)C(N)=O | broth microdilution | ATCC 6633 | – | 3.12 µM
CC(C)C[C@H](NC(=O)[C@H](CC(C)C)NC(=O)[C@H](CCCCN)NC(=O)[C@@H]1CCCN1C(=O)[C@H](CC(C)C)NC(=O)[C@H](CC(C)C)NC(=O)[C@H](CCCCN)NC(=O)[C@H](CC(C)C)NC(=O)[C@H](CC(C)C)NC(=O)[C@H](CO)NC(=O)CNC(=O)[C@H](Cc1ccccc1)NC(=O)[C@@H](N)Cc1ccccc1)C(N)=O | broth microdilution | – | – | 3.12 µM
CC[C@H](C)[C@H](N)C1=N[C@H](C(=O)N[C@@H](CC(C)C)C(=O)N[C@H](CCC(=O)O)C(=O)N[C@H](C(=O)N[C@H]2CCCCNC(=O)[C@H](CC(N)=O)NC(=O)[C@@H](CC(=O)O)NC(=O)[C@H](Cc3c[nH]cn3)NC(=O)[C@@H](Cc3ccc4ccccc4c3)NC(=O)[C@H]([C@@H](C)CC)NC(=O)[C@@H](CCCN)NC2=O)[C@@H](C)CC)CS1 | – | 168 | 18 h, 37 °C, with: ZnSO4 0.3 mM | 4 µg/mL
CC[C@H](C)[C@@H]1NC(=O)CNC(=O)[C@H](CCCCN)NC(=O)[C@H](C)NC(=O)[C@H](CCC(=O)O)NC(=O)[C@H](Cc2ccccc2)NC(=O)[C@H](CO)NC(=O)[C@H](CC(C)C)NC(=O)[C@H](C(C)C)NC(=O)[C@H](CC(=O)O)NC(=O)[C@@H](NC(=O)[C@@H](NC(=O)[C@@H](N)C(C)C)[C@@H](C)O)CSSC[C@@H]2NC(=O)[C@H](CO)NC(=O)CNC(=O)CNC(=O)[C@H](CCCCN)NC(=O)[C@H](CCCCN)NC(=O)[C@H](CCCNC(=N)N)NC(=O)[C@H](CC(C)C)NC(=O)[C@H](C)NC(=O)[C@H]([C@@H](C)CC)NC(=O)[C@H](C)NC(=O)[C@H](Cc3c[nH]cn3)NC(=O)[C@H](CC(C)C)NC(=O)[C@H](C)NC(=O)[C@H](CSSC[C@@H](C(=O)N[C@H](C(=O)N[C@@H](C)C(=O)N[C@@H](CCCNC(=N)N)C(=O)N[C@@H](CC(N)=O)C(=O)O)C(C)C)NC(=O)[C@H](C(C)C)NC(=O)CNC(=O)[C@H](CC(N)=O)NC(=O)[C@H](CCC(N)=O)NC2=O)NC(=O)[C@H](C)NC(=O)[C@H](CO)NC(=O)[C@H](Cc2c[nH]cn2)NC(=O)[C@H](CC(N)=O)NC(=O)[C@H](C(C)C)NC(=O)[C@H](C)NC1=O | broth microdilution | KCTC 3068 | 16 h, 37 °C | > 100 µM
CC(C)C[C@H](NC(=O)[C@@H]1CSCC(=O)N[C@@H](CCCCN)C(=O)N[C@@H](CC(C)C)C(=O)N[C@@H](CCCCN)C(=O)N[C@H]2CCCCNC(=O)[C@H](CCCCN)NC(=O)[C@H](CC(C)C)NC(=O)[C@H](CCCCN)NC(=O)CSC[C@H](NC(=O)[C@H](CC(C)C)NC(=O)[C@H](CC(C)C)NC(=O)[C@H](CCCCN)NC2=O)C(=O)N[C@@H](CCCCN)C(=O)N[C@@H](CC(C)C)C(=O)N[C@@H](CCCCN)C(=O)N1)C(N)=O | – | BR 151 | 18 h | 32 µg/mL
CN1C(=O)[C@@H]2NC(=O)[C@@H]3NC(=O)[C@@H](c4ccc(O)cc4)NC(=O)[C@H](NC(=O)C(NCc4ccc(O)c(O)c4O)c4ccc(O)cc4)Cc4c[nH]c5cc(ccc45)-c4cc3cc(c4O)Oc3ccc(cc3)C[C@H]1C(=O)N[C@@H](C(=O)O)c1ccc(O)c(c1)Oc1ccc2cc1 (stereo partly shown) | – | 168, Mueller-Hinton broth | – | 4 µg/mL
CC(C)C[C@@H]1NC(=O)[C@H](CC(C)C)NC(=O)[C@H](CCCCN)NC(=O)CSC[C@@H]2NC(=O)[C@H](CC(C)C)NC(=O)[C@H](CC(C)C)NC(=O)[C@H](CCCCN)NC(=O)[C@H](CCCCNC1=O)NC(=O)[C@H](CC(C)C)NC(=O)[C@H](CC(C)C)NC(=O)[C@H](CCCCN)NC(=O)CSC[C@@H](C(=O)N[C@@H](CCCCN)C(N)=O)NC(=O)[C@H](CCCCN)NC(=O)[C@H](CC(C)C)NC(=O)[C@H](CCCCN)NC2=O | – | BR 151 | 18 h | 32 µg/mL
CC[C@H](C)[C@H](NC(=O)[C@@H](Cc1ccccc1)NC)C(=O)OC[C@H](N)C(=O)N[C@H](CCCNC(=N)N)C(=O)N[C@@H](C(=O)N[C@H](C(=O)OC[C@H](N)C(=O)N[C@H]1C(=O)N[C@@H](C)C(=O)N[C@@H](CC(C)C)C(=O)N[C@@H]([C@@H](C)CC)C(=O)O[C@H]1C)[C@@H](C)CC)[C@@H](C)CC | broth microdilution | ATCC 6051, Mueller-Hinton broth | 16 h, 37 °C | 0.0156 to 0.0312 µg/mL
CN1C(=O)[C@@H]2NC(=O)[C@@H]3NC(=O)[C@@H](c4ccc(O)cc4)NC(=O)[C@H](NC(=O)C(NCc4cccc(-c5ccc(F)cc5)c4)c4ccc(O)cc4)Cc4c[nH]c5cc(ccc45)-c4cc3cc(c4O)Oc3ccc(cc3)C[C@H]1C(=O)N[C@@H](C(=O)O)c1ccc(O)c(c1)Oc1ccc2cc1 (stereo partly shown) | – | 168, Mueller-Hinton broth | – | > 128 µg/mL
CN[C@@H]1[C@H](O)[C@H](NC)[C@H]2O[C@]3(O)[C@H](O[C@@H]2[C@H]1O)O[C@H](C)C[C@@]3(O)CNCc1ccccc1 | – | ATCC 23857 | – | 3.1 µg/mL
NCCCC[C@H](NC(=O)[C@@H]1CSCC(=O)N[C@@H](CCCCN)C(=O)N[C@@H](Cc2ccccc2)C(=O)N[C@@H](CCCCN)C(=O)NCCCC[C@@H]2NC(=O)[C@H](CCCCN)NC(=O)[C@H](Cc3ccccc3)NC(=O)[C@H](CCCCN)NC(=O)CSC[C@H](NC(=O)[C@H](Cc3ccccc3)NC(=O)[C@H](Cc3ccccc3)NC(=O)[C@H](CCCCN)NC2=O)C(=O)N[C@@H](Cc2ccccc2)C(=O)N[C@@H](Cc2ccccc2)C(=O)N[C@@H](Cc2ccccc2)C(=O)N1)C(N)=O | – | BR 151 | 18 h | 2 µg/mL
CN1C(=O)[C@@H]2NC(=O)[C@@H]3NC(=O)[C@@H](c4ccc(O)cc4)NC(=O)[C@H](NC(=O)C(NCc4cc(F)cc(F)c4F)c4ccc(O)cc4)Cc4c[nH]c5cc(ccc45)-c4cc3cc(c4O)Oc3ccc(cc3)C[C@H]1C(=O)N[C@@H](C(=O)O)c1ccc(O)c(c1)Oc1ccc2cc1 (stereo partly shown) | – | 168, Mueller-Hinton broth | – | 4 µg/mL
CC(C)C[C@@H]1NC(=O)[C@H](CCCCN)NC(=O)CSC[C@@H]2NC(=O)[C@H](CC(C)C)NC(=O)[C@H](CC(C)C)NC(=O)[C@H](CCCCN)NC(=O)[C@H](CCCCNC(=O)[C@H](CCCCN)NC1=O)NC(=O)[C@H](CCCCN)NC(=O)[C@H](CC(C)C)NC(=O)[C@H](CCCCN)NC(=O)CSC[C@@H](C(=O)N[C@@H](CCCCN)C(N)=O)NC(=O)[C@H](CCCCN)NC(=O)[C@H](CC(C)C)NC(=O)[C@H](CC(C)C)NC2=O | – | BR 151 | 18 h | 32 µg/mL
CCCCCCCCCCCCCCCCCCCCCCSCC1OC(OC2C(N)CC(N)C(OC3OC(CN)C(O)CC3N)C2O)C(O)C(N)C1O (stereo not shown) | – | 168 AAC(6')/APH(2'') plasmid | – | > 150 µg/mL
